{"data": "Measured values from different studies", "PRKCB isoform beta-I": "Protein kinase C beta type, isoform beta-I (PRKCB, Homo sapiens, UniProt P05771)", "PRKCB isoform beta-II": "Protein kinase C beta type, isoform beta-II (PRKCB, Homo sapiens, UniProt P05771)", "note": "Protocols differ between the studies behind these lines.", "sequence of UniProt P05771 (whole entry, looked up)": "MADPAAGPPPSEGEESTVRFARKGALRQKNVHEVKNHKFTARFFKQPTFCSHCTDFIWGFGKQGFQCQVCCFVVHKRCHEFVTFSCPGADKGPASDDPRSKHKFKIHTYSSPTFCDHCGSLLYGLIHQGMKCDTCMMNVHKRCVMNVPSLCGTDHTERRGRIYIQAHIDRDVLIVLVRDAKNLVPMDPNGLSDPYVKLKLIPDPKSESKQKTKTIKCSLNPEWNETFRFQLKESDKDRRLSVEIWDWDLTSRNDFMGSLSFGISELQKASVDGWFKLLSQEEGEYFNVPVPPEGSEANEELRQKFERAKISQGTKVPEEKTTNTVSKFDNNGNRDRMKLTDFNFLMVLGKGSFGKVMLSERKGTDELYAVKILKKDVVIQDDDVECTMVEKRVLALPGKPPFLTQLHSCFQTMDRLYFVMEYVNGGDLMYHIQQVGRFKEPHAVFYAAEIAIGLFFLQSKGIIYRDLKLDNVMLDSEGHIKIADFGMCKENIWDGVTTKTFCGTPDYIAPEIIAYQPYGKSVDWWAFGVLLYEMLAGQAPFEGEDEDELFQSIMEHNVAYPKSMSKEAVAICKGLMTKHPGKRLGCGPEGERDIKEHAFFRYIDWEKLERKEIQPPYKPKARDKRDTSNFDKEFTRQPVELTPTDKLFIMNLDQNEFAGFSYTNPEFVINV"}
{"SMILES": "CC(C)(O)[C@H]1CC[C@H](Nc2ccc3ncc(-c4cccc(C(F)(F)F)c4)n3n2)CC1", "target": "PRKCB isoform beta-I", "test": "enzyme activity, inhibitor", "conditions": "1 µM, with: 10 µM ATP", "scale": "relative to: DMSO", "remaining activity": "92%"}
{"SMILES": "Cc1ccc(C(=O)NCc2ccsc2)cc1C#Cc1cn(C(C)C)c2ncnc(N)c12", "target": "PRKCB isoform beta-II", "test": "kinase activity", "conditions": "1 µM, with: ATP at Km", "remaining activity": "102%"}
{"SMILES": "Cc1cnc(NC2CCOCC2)nc1-n1cnc(C(=O)NC(CN)c2cc(F)cc(Cl)c2)c1 (stereo not drawn)", "target": "PRKCB isoform beta-II", "test": "radiometric", "conditions": "1 µM", "remaining activity": "105%"}
{"SMILES": "CC(C)c1ccc(NC(=O)c2cccs2)c(-c2nc3ccccc3[nH]c2=O)c1", "target": "PRKCB isoform beta-I", "test": "kinase activity", "conditions": "1 µM", "remaining activity": "109%"}
{"SMILES": "Cc1ccc(NC(=O)c2ccc(C)c(C(F)(F)F)c2)cc1C#Cc1nn(C2CCC(O)CC2)c2ncnc(N)c12 (stereo not drawn)", "target": "PRKCB isoform beta-I", "test": "enzyme activity", "conditions": "10 µM, with: ATP 10 µM", "remaining activity": "100%"}
{"SMILES": "Cc1cc(Nc2cc(N3CCN(C)CC3)nc(Sc3ccc(NC(=O)C4CC4)cc3)n2)[nH]n1", "target": "PRKCB isoform beta-I", "test": "kinase activity, KinaseProfiler", "conditions": "0.03 µM, species human", "scale": "relative to: control", "remaining activity": "109%"}
{"SMILES": "c1cnc2ccc(Nc3nc(NC4CC4)c4nc[nH]c4n3)cc2c1", "target": "PRKCB isoform beta-II", "test": "kinase activity, inhibitor, SelectScreen kinase profiling", "conditions": "1 µM", "scale": "relative to: control", "remaining activity": "95%"}
{"SMILES": "CCN(CC)c1ccc(C2=NNC(=O)CC2C)cc1[N+](=O)[O-] (stereo not drawn)", "target": "PRKCB isoform beta-II", "test": "kinase activity, inhibitor", "conditions": "10 µM", "remaining activity": "101%"}
{"SMILES": "CCCOc1ccc(OC)c(F)c1C(=O)c1ccc(C(=O)N[C@@H]2CNC[C@H]2NC(=O)c2ccc3[nH]ncc3c2)cc1", "target": "PRKCB isoform beta-I", "test": "kinase activity", "conditions": "10 µM", "remaining activity": "48%"}
{"SMILES": "COc1cc(Cl)c(C(=O)N[C@@H](CN[C@H]2CC[C@@H](N)CC2)Cc2ccc(C#N)cc2)cc1-c1ccc(CN[C@H](C)c2ccc(C)cc2)o1", "target": "PRKCB isoform beta-I", "test": "enzyme activity, KinaseProfiler panel", "conditions": "1 µM", "remaining activity": "94%"}
{"SMILES": "COc1cc(-c2cncc3c2CN(C)Cc2cc(N4CCNCC4)ccc2-3)cc(OC)c1OC", "target": "PRKCB isoform beta-I", "test": "enzyme activity", "conditions": "1 µM, with: 10 µM ATP", "scale": "relative to: DMSO", "remaining activity": "102%"}
{"SMILES": "COc1cc(F)ccc1-c1ncnc(Nc2cccc(C[S@](C)(=N)=O)c2)n1", "target": "PRKCB isoform beta-II", "test": "kinase activity", "conditions": "10 µM, with: 10 µM ATP", "remaining activity": "88%"}
{"SMILES": "CC(C)(C)c1nc2c(s1)c1nc(N)ncc1c1ccc(NS(=O)(=O)c3c(F)cccc3F)c(F)c12", "target": "PRKCB isoform beta-I", "test": "kinase activity, radiometric 33PanQinase", "conditions": "1 µM", "scale": "relative to: DMSO", "remaining activity": "94%"}
{"SMILES": "CNc1ncc2c(/C=C/C(=O)N3CCC(OC)CC3)nn(Cc3cccc(C(F)(F)F)c3)c2n1", "target": "PRKCB isoform beta-II", "test": "inhibitor", "conditions": "1 µM", "scale": "relative to: control", "remaining activity": "94%"}
{"SMILES": "Cc1cc(NC(=O)c2cccc3cc(-c4cccc5[nH]nc(N)c45)ccc23)ccc1F", "target": "PRKCB isoform beta-I", "test": "enzyme activity, kinase profiling panel", "conditions": "0.1 µM", "remaining activity": "106%"}
{"note": "Excerpt of the above:"}
{"SMILES": "COc1cc(F)ccc1-c1ncnc(Nc2cccc(C[S@](C)(=N)=O)c2)n1", "target": "PRKCB isoform beta-II", "test": "kinase activity", "conditions": "10 µM, with: 10 µM ATP", "remaining activity": "88%"}
